{"data": "Assay results collected from several papers", "note": "Each numbered part is a random draw from the data of one study; scales do not carry over between parts.", "sequence of UniProt P49137 (whole entry, looked up)": "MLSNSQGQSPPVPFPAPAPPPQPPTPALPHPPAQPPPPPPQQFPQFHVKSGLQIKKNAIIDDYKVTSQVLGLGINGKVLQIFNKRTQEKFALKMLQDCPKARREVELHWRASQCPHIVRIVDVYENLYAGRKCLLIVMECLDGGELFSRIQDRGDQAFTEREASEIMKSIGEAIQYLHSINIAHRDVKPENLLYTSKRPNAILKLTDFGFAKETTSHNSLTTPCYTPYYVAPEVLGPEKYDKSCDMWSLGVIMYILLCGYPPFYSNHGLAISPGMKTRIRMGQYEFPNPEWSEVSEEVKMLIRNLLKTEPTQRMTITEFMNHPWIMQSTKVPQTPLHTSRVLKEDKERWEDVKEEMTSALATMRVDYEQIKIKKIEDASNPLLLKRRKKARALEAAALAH", "sequence of UniProt P48730 (whole entry, looked up)": "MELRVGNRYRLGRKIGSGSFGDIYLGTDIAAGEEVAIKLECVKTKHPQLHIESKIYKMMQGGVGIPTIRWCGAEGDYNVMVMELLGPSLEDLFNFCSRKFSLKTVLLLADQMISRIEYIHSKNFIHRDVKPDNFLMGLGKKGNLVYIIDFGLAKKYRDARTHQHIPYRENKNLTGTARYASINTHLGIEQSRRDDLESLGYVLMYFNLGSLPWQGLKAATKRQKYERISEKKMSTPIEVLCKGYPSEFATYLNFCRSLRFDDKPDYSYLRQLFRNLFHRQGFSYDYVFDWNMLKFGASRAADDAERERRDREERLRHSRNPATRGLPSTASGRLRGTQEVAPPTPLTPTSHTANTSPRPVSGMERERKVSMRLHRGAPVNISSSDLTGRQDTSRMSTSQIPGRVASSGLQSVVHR", "sequence of UniProt P08922 (whole entry, looked up)": "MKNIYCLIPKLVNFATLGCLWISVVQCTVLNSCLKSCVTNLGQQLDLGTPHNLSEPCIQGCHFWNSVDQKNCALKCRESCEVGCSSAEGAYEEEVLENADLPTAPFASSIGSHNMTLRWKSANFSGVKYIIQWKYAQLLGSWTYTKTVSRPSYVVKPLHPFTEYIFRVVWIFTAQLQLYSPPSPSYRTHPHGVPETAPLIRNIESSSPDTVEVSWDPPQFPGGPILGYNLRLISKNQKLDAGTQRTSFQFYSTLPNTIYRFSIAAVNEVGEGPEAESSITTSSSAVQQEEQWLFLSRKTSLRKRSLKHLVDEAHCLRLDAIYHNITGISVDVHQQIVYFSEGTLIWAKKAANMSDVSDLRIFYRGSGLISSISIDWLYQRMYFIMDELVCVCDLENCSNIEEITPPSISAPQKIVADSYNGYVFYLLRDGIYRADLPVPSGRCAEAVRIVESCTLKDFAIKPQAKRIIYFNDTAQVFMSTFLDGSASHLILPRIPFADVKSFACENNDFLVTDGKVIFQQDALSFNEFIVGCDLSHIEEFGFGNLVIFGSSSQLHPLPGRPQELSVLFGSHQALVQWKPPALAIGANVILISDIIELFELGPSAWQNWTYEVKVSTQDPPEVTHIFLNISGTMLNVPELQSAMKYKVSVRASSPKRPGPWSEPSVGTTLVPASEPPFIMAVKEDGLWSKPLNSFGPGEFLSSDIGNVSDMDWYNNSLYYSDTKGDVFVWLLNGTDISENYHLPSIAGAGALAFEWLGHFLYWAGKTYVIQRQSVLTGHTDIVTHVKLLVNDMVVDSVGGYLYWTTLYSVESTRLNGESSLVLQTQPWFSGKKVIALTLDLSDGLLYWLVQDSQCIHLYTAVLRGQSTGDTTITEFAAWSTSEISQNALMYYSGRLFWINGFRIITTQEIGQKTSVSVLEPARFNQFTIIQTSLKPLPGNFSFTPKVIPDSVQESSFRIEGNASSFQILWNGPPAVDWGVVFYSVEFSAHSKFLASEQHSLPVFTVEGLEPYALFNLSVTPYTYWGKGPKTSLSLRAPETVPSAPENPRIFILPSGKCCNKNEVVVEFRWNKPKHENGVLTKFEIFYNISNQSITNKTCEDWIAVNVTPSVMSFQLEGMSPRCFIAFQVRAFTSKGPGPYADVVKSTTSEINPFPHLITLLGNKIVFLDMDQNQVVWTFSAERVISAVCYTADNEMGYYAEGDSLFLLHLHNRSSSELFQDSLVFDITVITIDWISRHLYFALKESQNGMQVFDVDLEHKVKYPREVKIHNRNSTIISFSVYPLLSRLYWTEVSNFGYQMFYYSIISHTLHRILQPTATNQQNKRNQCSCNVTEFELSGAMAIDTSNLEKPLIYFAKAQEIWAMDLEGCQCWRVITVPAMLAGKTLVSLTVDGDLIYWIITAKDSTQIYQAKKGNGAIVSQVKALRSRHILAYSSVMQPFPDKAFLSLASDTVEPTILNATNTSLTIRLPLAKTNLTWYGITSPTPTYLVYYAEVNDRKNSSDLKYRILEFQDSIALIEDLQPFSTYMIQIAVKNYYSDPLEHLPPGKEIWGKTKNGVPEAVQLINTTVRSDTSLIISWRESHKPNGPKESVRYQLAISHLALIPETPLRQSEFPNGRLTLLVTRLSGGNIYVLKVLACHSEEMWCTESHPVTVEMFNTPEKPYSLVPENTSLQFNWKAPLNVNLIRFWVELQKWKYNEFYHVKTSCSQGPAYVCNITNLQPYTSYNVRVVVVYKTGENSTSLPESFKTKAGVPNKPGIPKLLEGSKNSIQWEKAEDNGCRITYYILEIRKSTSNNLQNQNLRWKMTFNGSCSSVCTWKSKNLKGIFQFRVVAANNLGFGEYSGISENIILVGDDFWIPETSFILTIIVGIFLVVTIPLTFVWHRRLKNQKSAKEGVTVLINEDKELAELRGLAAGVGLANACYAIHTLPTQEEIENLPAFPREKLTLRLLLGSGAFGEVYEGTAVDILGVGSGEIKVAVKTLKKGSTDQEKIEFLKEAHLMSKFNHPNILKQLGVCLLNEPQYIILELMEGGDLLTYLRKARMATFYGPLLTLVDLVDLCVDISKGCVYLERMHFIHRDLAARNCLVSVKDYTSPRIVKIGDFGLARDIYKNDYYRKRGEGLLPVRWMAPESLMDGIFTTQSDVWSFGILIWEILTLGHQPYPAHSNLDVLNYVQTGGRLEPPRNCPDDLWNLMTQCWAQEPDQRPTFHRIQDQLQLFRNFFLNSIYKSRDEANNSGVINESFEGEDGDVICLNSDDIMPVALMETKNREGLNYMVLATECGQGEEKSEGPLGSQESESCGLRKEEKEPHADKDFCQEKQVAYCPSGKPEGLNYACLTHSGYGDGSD", "sequence of UniProt P32298 (whole entry, looked up)": "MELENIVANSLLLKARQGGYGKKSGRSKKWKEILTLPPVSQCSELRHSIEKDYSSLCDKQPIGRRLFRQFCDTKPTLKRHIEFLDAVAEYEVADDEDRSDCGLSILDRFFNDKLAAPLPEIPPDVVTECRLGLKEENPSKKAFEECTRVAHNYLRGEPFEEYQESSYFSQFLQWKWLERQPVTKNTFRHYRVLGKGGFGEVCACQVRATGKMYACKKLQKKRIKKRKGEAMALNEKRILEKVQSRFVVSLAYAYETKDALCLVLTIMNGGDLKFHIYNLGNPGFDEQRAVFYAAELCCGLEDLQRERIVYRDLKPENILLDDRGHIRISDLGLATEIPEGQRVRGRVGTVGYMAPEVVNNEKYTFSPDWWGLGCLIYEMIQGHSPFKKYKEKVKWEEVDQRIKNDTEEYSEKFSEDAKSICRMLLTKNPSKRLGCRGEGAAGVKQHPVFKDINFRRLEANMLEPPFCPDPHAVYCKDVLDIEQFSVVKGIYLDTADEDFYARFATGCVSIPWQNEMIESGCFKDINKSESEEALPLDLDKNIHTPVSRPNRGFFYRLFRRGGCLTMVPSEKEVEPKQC"}
{"data": "Study 1", "Structure (SMILES)": "[2H]c1c([2H])c([C@]2([2H])CCCN2C(=O)C(C)(C)Oc2ccc3cn[nH]c3c2)c([2H])c([2H])c1C([2H])([2H])[2H]", "effect on": "binding", "technique": "competition with immobilised ligand", "concentration": "1 µM"}
{"target": "INSRR (Homo sapiens, UniProt P14616)", "remaining binding [%]": 75}
{"target": "CSNK1D (Homo sapiens, UniProt P48730)", "remaining binding [%]": 66}
{"target": "GRK4 (Homo sapiens, UniProt P32298)", "remaining binding [%]": 62}
{"target": "RET (Homo sapiens, UniProt P07949)", "remaining binding [%]": 73}
{"target": "MAPKAPK2 (Homo sapiens, UniProt P49137)", "remaining binding [%]": 82}
{"target": "EPHB3 (Homo sapiens, UniProt P54753)", "remaining binding [%]": 73}
{"target": "ROS1 (Homo sapiens, UniProt P08922)", "remaining binding [%]": 88}
{"target": "FLT3 (Homo sapiens, UniProt P36888)", "remaining binding [%]": 85}
{"data": "Mixed results", "MAPKAPK2": "MAP kinase-activated protein kinase 2 (MAPKAPK2, Homo sapiens, UniProt P49137)", "CA9": "Carbonic anhydrase 9 (CA9, Homo sapiens, UniProt Q16790)"}
{"Structure (SMILES)": "C1=C/COCc2cc(ccc2OCCN2CCCC2)Nc2nccc(n2)-c2cccc(c2)COC/1", "target": "FLT3 (Homo sapiens, UniProt P36888, D835H)", "effect on": "binding", "concentration": "0.1 µM", "endpoint": "remaining binding", "value": "16%"}
{"Structure (SMILES)": "CCCCC(=O)Nc1ccc(-c2ccc3ncn(CCC)c(=O)c3c2)cn1", "target": "FLT3 (Homo sapiens, UniProt P36888, N841I)", "effect on": "binding", "technique": "competition with immobilised ligand", "concentration": "0.5 µM", "endpoint": "remaining binding", "value": "100%"}
{"Structure (SMILES)": "COc1cc(-c2cncc3c2CN(C)Cc2cc(N4CCNCC4)ccc2-3)cc(OC)c1OC", "target": "MAPKAPK2", "effect on": "enzyme activity", "mode": "inhibitor", "concentration": "1 µM", "endpoint": "remaining activity", "value": "108%"}
{"Structure (SMILES)": "CNc1ncc2c(/C=C/C(=O)N3CCC(OC)CC3)nn(Cc3cccc(C(F)(F)F)c3)c2n1", "target": "PLK1 (Homo sapiens, UniProt P53350)", "effect on": "enzyme activity", "mode": "inhibitor", "technique": "radiometric", "concentration": "1 µM", "endpoint": "remaining activity", "value": "109%"}
{"Structure (SMILES)": "NS(=O)(=O)c1cc(C(=O)OCc2csc(CC(=O)Nc3ccccc3)n2)ccc1Cl", "target": "CA9", "effect on": "enzyme activity", "mode": "inhibitor", "endpoint": "IC50", "value": "144 nM"}
{"Structure (SMILES)": "C=CC(=O)N1CCC(COCC(=O)N2CCN(c3nc(-c4cnc(N)nc4C(F)F)nc(N4CCOC[C@@H]4C)n3)CC2)CC1", "target": "CSNK1D (Homo sapiens, UniProt P48730)", "effect on": "binding", "technique": "competition with immobilised ligand", "concentration": "1 µM", "endpoint": "remaining binding", "value": "100%"}
{"Structure (SMILES)": "Cc1nn(-c2ccc(S(N)(=O)=O)cc2)c(C)c1CCC(=O)Nc1ccc(OCc2cn(C)nn2)cc1", "target": "CA9", "effect on": "enzyme activity", "mode": "inhibitor", "endpoint": "IC50", "value": "24 nM"}
{"Structure (SMILES)": "Cc1cc([C@@H](C)Nc2ccccc2C(=O)O)c2nc(N3CCC(F)(F)CC3)c(C#N)c(=O)n2c1", "target": "MAPKAPK2", "effect on": "binding", "technique": "competition with immobilised ligand", "concentration": "1 µM", "endpoint": "remaining binding", "value": "58%"}
{"note": "Some of these lines once more (mixed results):"}
{"Structure (SMILES)": "NS(=O)(=O)c1cc(C(=O)OCc2csc(CC(=O)Nc3ccccc3)n2)ccc1Cl", "target": "CA9", "effect on": "enzyme activity", "mode": "inhibitor", "endpoint": "IC50", "value": "144 nM"}
{"Structure (SMILES)": "Cc1cc([C@@H](C)Nc2ccccc2C(=O)O)c2nc(N3CCC(F)(F)CC3)c(C#N)c(=O)n2c1", "target": "MAPKAPK2", "effect on": "binding", "technique": "competition with immobilised ligand", "concentration": "1 µM", "endpoint": "remaining binding", "value": "58%"}
